# Experimental data collected from several papers.
# A part holds a random share of what one study measured. Changes are numbered by the printed parent chain.

# Set 1 — technique: protein binding microarray; molecule type: double-stranded DNA, one strand shown; sample: in vitro; tested at: not given; relative to: not given; reading: higher = stronger binding
# Target: Histone acetyltransferase KAT6A, both winged helices, GST fusion (KAT6A, Homo sapiens, UniProt Q92794, residues 1-181)
# Notes: 8-mer, flanks averaged, mean of 2 arrays, mostly near background
# Residues (chain): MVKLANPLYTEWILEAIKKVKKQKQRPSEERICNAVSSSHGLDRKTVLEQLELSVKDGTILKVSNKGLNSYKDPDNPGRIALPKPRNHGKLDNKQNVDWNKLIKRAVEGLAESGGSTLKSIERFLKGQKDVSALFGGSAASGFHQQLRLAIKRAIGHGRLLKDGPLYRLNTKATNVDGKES
Oligonucleotide,E-score
AGATAGGA,-0.232
CAGGTTCC,-0.0612
GGTCAGGA,-0.0412
CCGAATAA,0.00187
TCTTCTAA,-0.042
AAAGCCGG,0.305
CTTGAGGA,-0.162
AACCGGAT,0.0243
CCATGAAA,-0.145
CTTTCGGA,0.0564
CGTTCCAG,-0.158
ACTTTCTG,-0.0678
ACTTCGAG,-0.0157
CGTCCTAC,-0.0332
AGCCCCAA,-0.304
CACCTGAC,-0.0436
AAGCGCAT,0.13
GCATCCCC,0.00628
ATTCTCAG,-0.211
GTAGAGAA,-0.137
CTCGCCCA,-0.0998

# Set 2 — target: CEP164, C-terminal peptide (human); technique: DHFR complementation, deep sequencing; sample: yeast; relative to: wild type; reading: higher = weaker binding
# Notes: single substitutions, model-inferred values
# Starting sequence: PDZK1, PDZ domain 2 (human); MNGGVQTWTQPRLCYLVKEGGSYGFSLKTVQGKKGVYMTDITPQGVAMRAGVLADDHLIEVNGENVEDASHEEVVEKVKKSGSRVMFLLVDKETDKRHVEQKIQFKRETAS; partner HNRVKVYRF
Change,binding free energy change [kcal/mol]
T94I,0.175
K102H,0.037
I103R,-0.147
R107I,-0.114
V99E,-0.22
T9F,0.0701
K80N,0.49
G35W,0.0842
G51W,0.487
E73I,0.0595
E73N,0.0904
R107E,-0.192
H57D,0.931
Q104G,-0.141
Y37H,0.648
F87D,1.5
T7V,-0.0297

# Set 3 — technique: DHFR PCA, deep sequencing; sample: yeast; with: (+)-ABA 200 µM; relative to: wild-type fitted maximum; reading: higher = stronger binding
# Target: ABI1, truncated, D143A, DHFR fusion (Arabidopsis thaliana)
# Notes: methotrexate growth selection, single substitutions
# Starting sequence: PYL1, truncated, DHFR fusion (Arabidopsis thaliana); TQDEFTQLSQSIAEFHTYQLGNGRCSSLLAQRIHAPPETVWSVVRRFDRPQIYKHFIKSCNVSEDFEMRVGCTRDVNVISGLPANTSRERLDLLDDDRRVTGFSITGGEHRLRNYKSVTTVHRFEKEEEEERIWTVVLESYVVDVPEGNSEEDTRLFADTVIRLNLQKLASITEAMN
Change,relative binding score [%]
R111F,53
F56L,99.2
H34L,98.1
G21L,95.4
E151A,104
D92I,67.8
R98M,107
T101K,2.18
T101G,20.4
A13T,95.6
N165S,31.3
R163H,81.6
D3Q,103
G102W,14
F5L,100
Q10V,88.8
T1Q,99.3
Q7C,98

# Set 4 — target: CCNB3, cyclin fold, Cln2 fusion (human); technique: yeast growth competition, sequencing; sample: yeast; notes: weak parent motif; relative to: not given; reading: higher = stronger binding
# Starting sequence: MICAL3 docking peptide (human); LQLRRQLSFSEDS
Change,normalised enrichment score
D12E,0.153
F9E,-0.223
Q6D,-0.0704
F9Y,-0.19
S10L,0.312
S8R,-0.00429
L7K,-0.259
L7R,-0.143
L7S,-0.185
L3Y,0.0604
F9L,-0.396
L7M,0.177
L3C,1.01
D12Q,0.172
L3T,0.268
R5N,0.447
R5E,0.16
L7Y,-0.0884
Q2S,0.159
R4G,0.156
R5M,-0.0539
R5H,-0.314
Q6S,0.408
S10W,-0.0604
S8C,0.189

# Set 5 — target: NFIL3, bZIP domain (human); technique: DHFR protein complementation; sample: yeast; relative to: wild-type JUN-FOS pair; reading: higher = stronger binding
# Notes: single substitutions, most at no-binding floor
# Starting sequence: JUN, bZIP domain (human); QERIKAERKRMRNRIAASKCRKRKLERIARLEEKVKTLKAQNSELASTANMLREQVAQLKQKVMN; partner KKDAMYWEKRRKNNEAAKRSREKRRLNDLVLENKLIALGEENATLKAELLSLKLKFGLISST
Change,binding fitness
N42F,-1.53 natural log
A40D,-1.26 natural log
A29H,-1.53 natural log
T48S,-1.4 natural log
Q41S,-1.51 natural log
A57R,-1.45 natural log
K34R,-1.36 natural log
A40N,-1.49 natural log
A57L,-1.33 natural log
E33W,-1.39 natural log
I28E,-1.42 natural log
K36W,-1.37 natural log
L52G,-1.53 natural log
S43F,-1.48 natural log
K39P,-1.5 natural log
E54D,-1.56 natural log
K39T,-1.44 natural log
E32M,-1.09 natural log
A40E,-1.34 natural log
V35S,-1.56 natural log

# Set 6 — technique: RNA Bind-n-Seq; molecule type: RNA; sample: in vitro; tested at: not given; relative to: input RNA pool; reading: higher = stronger binding
# Target: RING finger protein unkempt homolog, zinc fingers 1-6, GST-SBP tag (UNK, Homo sapiens, UniProt Q9C0B0, residues 30-357)
# Chain of UniProt Q9C0B0 (30-357, looked up): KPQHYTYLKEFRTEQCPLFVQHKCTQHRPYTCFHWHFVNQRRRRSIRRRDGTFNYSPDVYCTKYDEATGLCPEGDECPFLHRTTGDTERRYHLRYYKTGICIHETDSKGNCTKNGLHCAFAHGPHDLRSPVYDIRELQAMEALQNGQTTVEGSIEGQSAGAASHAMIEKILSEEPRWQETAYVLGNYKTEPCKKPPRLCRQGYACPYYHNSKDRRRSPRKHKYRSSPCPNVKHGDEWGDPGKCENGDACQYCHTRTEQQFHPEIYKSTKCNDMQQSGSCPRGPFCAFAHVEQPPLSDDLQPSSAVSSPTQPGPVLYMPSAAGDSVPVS
# Notes: RNA with constant flanks, human-mouse chimeric sites, ends assumed
# Shared flanks, not repeated: GGGAGUUCUACAGUCCGACGAUC … CAACAGAGGAUUGAGCAUCA
Oligonucleotide,bound/input enrichment
AUGCAGUAUGAGACCAACAGCAUGGACUUCAAAGUUGGGGCGGAUGGGACAGUCUUCGCCACCCGGGAGCUGCAGGUCCCCUCCGAGCAGGUGGCGUUCACGGUGACUGCAUGGGACAGC,0.332 ratio
AAAGAACCUCUCUCUGAUGAAGAUGAGGAAGACAAUGAUGAUGUUGAACCCAUUUCUGAAUUUCGAUUUGUGCCCAGUGAUAAGUCAGCAUUGGAGGCAAUGUUCACAGCAAUGUGUGAG,0.192 ratio
UACUCAACUUUCUUGCCACGUUUUGAAUUCCAAGACAUUAUUCCUCCAGAUGACUUUCUAACGAGUGAUGAAGAGCAAGAUUUGGUUUUAUUUGGAACUAUGAGAGGACAAGUUGUUGGA,0.169 ratio
AGAGCCCAGGAUGUUGAUGCUACAAACCCAAAUUACGAAAUUAUGUGUAUGAUCAGAGACUUCAGAGGGAGCUUGGAUUAUAGACCACUAACAACAGCAGAUCCUAUUGAUGAACAUAGG,0.53 ratio
ACCAUUUUCGCGGUUCAGGCUUUGUGUGUAGUUCACUUACGGUAUUAAAUUAUUAUUCUGCUUAGCUUAUAAUAAGGAUUACAAUUGUUAAAGAGGUUACUGAAUGUUACUCUGAAACUU,0.738 ratio
GCACUUGGGAAUGUAAUCAGCGCCUUGGGGGACAAGAGCAAGAGGGCCACCCAUGUCCCUUACAGAGACUCUAAGCUGACAAGACUCUUGCAGGAUUCCCUUGGGGGUAACAGCCAAACC,0.137 ratio
AACAGAUUGUCUUUAAGGUCAACGUAGGAGAAUGCUGGGGUGAUCAUUGUUGCCCAUAUAUAGUAAUACUGAGCUUUAAUGCUGUUCCAUGUUACAUCUUUCCUUCACUCCAGAAUUGUU,0.231 ratio
UAUUUUUACAGCCACACCAAUCUUGGCAUGUAUUAAGGAAAAAAAAAAUCCCUGUUGAAGUAGUUUUUCCACCUAUCAGCACUGAGUAAAUGCCAUAACUCCGCGGAAAUGGUCUAAAUA,0.202 ratio

# Excerpt of the above (set 3):
Change,relative binding score [%]
T1Q,99.3
D3Q,103
Q10V,88.8
T101G,20.4
R111F,53
R163H,81.6
F5L,100
Q7C,98
D92I,67.8
N165S,31.3
F56L,99.2
T101K,2.18
E151A,104
G21L,95.4
A13T,95.6
R98M,107
